Published values gathered from unrelated publications.
Protocols differ between the studies behind these lines.
Target: Dual specificity testis-specific protein kinase 1 (TESK1, Homo sapiens, UniProt Q15569)

Structure (SMILES) | assay | test system | conditions | scale | quantity | result
CCN1CCN(Cc2ccc(C(=O)Nc3ccc(C)c(NCc4cnc5[nH]ccc5c4OC)c3)cc2C(F)(F)F)CC1 | binding, competition with immobilised ligand |  | 1 µM |  | remaining binding | 94%
CN1CCN(Cc2ccc(-c3ccc(CO[C@H]4CCC[C@@H]4NC(=O)c4cc(-c5cnn(C)c5)cnc4N)cc3)cc2)CC1 | enzyme activity, inhibitor |  | 0.1 µM |  | inhibition | -7%
Nc1ncc(-c2cc(-c3cnn(CC(F)(F)F)c3)ncc2F)nc1C(=O)NC1CNCC(F)C1 (stereo not drawn) | enzyme activity |  | 1 µM | reference: DMSO control | remaining activity | 98%
Nc1ncc2c(n1)-c1c([nH]c3ccc(C4=CCOCC4)cc13)CCC2 | binding, competition with immobilised ligand |  | 1 µM |  | remaining binding | 100%
CC(C)=CC1OC(C)(C)C2C=C3C(=O)C(Cl)=CC(O)C3C3C(O)C4OC4C(=O)C132 (stereo not drawn) | cell-free assay, competition with immobilised ligand |  | 10 µM |  | remaining binding | 93%
C=CC(=O)N1CCCC(n2c(=O)c3ncccc3n(Cc3ccc(Oc4ccccc4)cc3)c2=O)C1 (stereo not drawn) | cell-free assay, competition with immobilised ligand |  | 1 µM |  | remaining binding | 100%
Cc1ccc(C(=O)Nc2ccc(CN3CCN(C)CC3)c(C(F)(F)F)c2)cc1C#Cc1cnc2cccnn12 | target engagement, NanoBRET | human cells |  |  | upper asymptote | 1170
CNC1C[S+]2CC[S+]3CC[S+](C1)[Ru-4]321([N]=C=S)[n]2c3ccc(OC)cc3c3c4c(c5cc(F)c[n+]1c5c32)C(=O)NC4=O (stereo not drawn) | KinomeScan |  | 0.1 µM | reference: untreated | remaining binding | 100%
CNC(=O)C1CCN(c2cc(C)c(F)cc2NC(=O)c2ccc(-c3cc(O)ccc3C)c(C)c2)CC1 | binding, competition with immobilised ligand |  | 1 µM |  | remaining binding | 99%
C=CC(=O)N1Cc2nc(-c3cc(-c4cc(Cl)cnc4Cl)c(F)cc3F)n(-c3ccncn3)c2C1 | cell-free assay, inhibitor |  | 1 µM |  | inhibition | -0.8%
COc1c(Cl)cccc1Nc1c(-c2ccncc2C#C[C@@]2(C)CCCN2C(=O)/C=C/CN(C)C)[nH]c2c1C(=O)NCC2 | binding, competition with immobilised ligand |  | 3 µM |  | remaining binding | 85%
COc1cc(Nc2nccc(-c3cnn4nc(OC)ccc34)n2)cc(C(F)(F)F)c1 | binding, competition with immobilised ligand |  | 1 µM |  | remaining binding | 100%
C=CC(=O)N1CCc2ccc(-n3c(=O)ccc4cnc5ccc(-c6cnn(C)c6)cc5c43)cc21 | KINOMEscan |  | 1 µM | reference: DMSO control | remaining binding | 100%
NC(=O)[C@@H](O)C[C@H]1CCc2sc3ncnc(O[C@H]4CC[C@H](N5CCOCC5)CC4)c3c21 | enzyme activity, inhibitor |  | 10 µM |  | inhibition | 31%
Cc1cnc2nc1Nc1cccc(c1)COC/C=C/COCc1cc(ccc1OCCN1CCOCC1)N2 | binding, competition with immobilised ligand |  | 0.1 µM |  | remaining binding | 100%
NC(=O)C[C@H]1CCc2sc3ncnc(O[C@H]4CC[C@H](N5CCOCC5)CC4)c3c21 | enzyme activity, inhibitor |  | 10 µM |  | inhibition | 14%
COc1cc(Nc2nc(C)cc(-c3cnn4nc(OC)ccc34)n2)cc(C(F)(F)F)c1 | binding, competition with immobilised ligand |  | 1 µM |  | remaining binding | 73%
Cc1ccc(-c2c(/C=C(\C#N)C(=O)NC(C)C)n(CCCO)c3ncnc(N)c23)cc1 | cell-free assay, competition with immobilised ligand |  | 1 µM |  | remaining binding | 84%

Some of these lines once more:
Structure (SMILES) | assay | test system | conditions | scale | quantity | result
C=CC(=O)N1CCCC(n2c(=O)c3ncccc3n(Cc3ccc(Oc4ccccc4)cc3)c2=O)C1 (stereo not drawn) | cell-free assay, competition with immobilised ligand |  | 1 µM |  | remaining binding | 100%
